Experimental data from different studies.
± marks the error that the study gave.
TRPM8: Transient receptor potential cation channel subfamily M member 8 (TRPM8, Homo sapiens, UniProt Q7Z2W7)
spsB: Signal peptidase IB (spsB, Staphylococcus aureus, UniProt Q5HHB9)
LCK: Tyrosine-protein kinase Lck (LCK, Homo sapiens, UniProt P06239)

`NC/C(=C\F)COc1cccc(Cn2c(=S)[nH]c(=O)c3[nH]cnc32)c1` gave a remaining activity of 15.6% (Peroxidasin homolog (PXDN, Homo sapiens, UniProt Q92626); Amplex UltraRed; 30 µM, mean of replicates; relative to: control).
`COc1cc(N2CCN(C)CC2)ccc1Nc1nc(N)n(C(=S)NCc2c(Cl)cccc2Cl)n1` has a remaining activity of 14% (PLK2 (Homo sapiens, UniProt Q9NYY3); enzyme activity; 10 µM; relative to: control).
`COc1cc(-c2cncc3c2CN(C)Cc2cc(N4CCNCC4)ccc2-3)cc(OC)c1OC` gave a remaining activity of 116% (MAP3K21 (Homo sapiens, UniProt Q5TCX8); kinase activity; 1 µM, human enzyme, together with: ATP 10 µM; relative to: DMSO control).
The remaining activity of `COc1cc2ncnc(Nc3cccc(Cl)c3)c2cc1OC` is reported as 106 ± 10.3% (TRPM8; antagonist; HEK293; 5 µM; relative to: control).
The remaining activity of `O=C(Nc1ccc(Cl)c(C(F)(F)F)c1)N1CCc2ccccc2C1` is reported as 156% (spsB; peptidase activity, activator, FRET peptide cleavage; Staphylococcus aureus, membranes; 50 µM; relative to: DMSO).
With `Cc1cccc(-c2[nH]c(C(C)(C)C)nc2-c2ccc3c(c2)OCO3)n1` the remaining activity was 105 ± 12.1% (TRPM8; antagonist; HEK293; 5 µM; relative to: control).
`CCN(CCO)CCCC(C)Nc1ccnc2cc(Cl)ccc12` (stereo not shown) has a remaining activity of 96.6% (Potassium voltage-gated channel subfamily KQT member 1, with KCNE1 (KCNQ1, Homo sapiens, UniProt P51787); IKs current, patch clamp; HEK293; 10 µM; relative to: pre-drug current).
The remaining activity of `COc1cc(N2CCN(C)CC2)ccc1Nc1nc(N)n(C(=O)NCc2ccccc2S(=O)(=O)C(C)C)n1` is reported as 8.9% (ERN1 (Homo sapiens, UniProt O75460); enzyme activity; 10 µM; relative to: control).
`CNc1ncc2c(/C=C/C(=O)N3CCC(OC)CC3)nn(Cc3cccc(C(F)(F)F)c3)c2n1` gave a remaining activity of 98% (AKT2 (Homo sapiens, UniProt P31751); kinase activity, inhibitor; 1 µM; relative to: untreated control).
`O=c1c2ccccc2[nH]c(=S)n1CCN1CCC(=C(c2ccc(F)cc2)c2ccc(F)cc2)CC1` gave a remaining activity of 95.1 ± 9.87% (TRPM8; antagonist; HEK293; 5 µM; relative to: control).
`COc1cc(N2CCN(C)CC2)ccc1Nc1nc(N)n(C(=O)NCc2c(Cl)cccc2Cl)n1` has a remaining activity of 1.2% (ROCK1 (Homo sapiens, UniProt Q13464); enzyme activity; 10 µM; relative to: control).
For `Cc1cc(Nc2cc(N3CCN(C)CC3)nc(Sc3ccc(NC(=O)C4CC4)cc3)n2)[nH]n1`, the remaining activity was 96% (RPS6KA1 (Homo sapiens, UniProt Q15418); kinase activity, KinaseProfiler; 0.03 µM, species human; relative to: control).
`O=C(Nc1ccc(Nc2ccccc2)cc1)Nc1ccc(Cl)c(C(F)(F)F)c1` gave a remaining activity of 132% (spsB; peptidase activity, activator, FRET peptide cleavage; Staphylococcus aureus, membranes; 10 µM; relative to: DMSO).
For `COc1ccc(F)cc1C(=O)NCc1ccc(-c2nn([C@@H](C)C(F)(F)F)c(N)c2C(N)=O)cc1`, the remaining activity was 106 ± 1.9% (CAMKK2 (Homo sapiens, UniProt Q96RR4); kinase activity, inhibitor, HotSpot radiometric; 100 nM, together with: ATP 10 µM).
`O=C(Nc1cccc(C(F)(F)F)c1)Nc1ccc2c(c1)OC(F)(F)O2` has a remaining activity of 127% (spsB; peptidase activity, activator, FRET peptide cleavage; Staphylococcus aureus, membranes; 10 µM; relative to: DMSO).
`O=C(NC1CCC1)c1ccc2nc(-c3cccc(NS(=O)(=O)NCCN4CCCCC4)c3)cn2c1` gave a remaining activity of 55% (FLT3 (Homo sapiens, UniProt P36888, K663Q); enzyme activity; 10 µM).
The remaining activity of `c1ccc(-c2n[nH]c3c2oc2ccccc23)cc1` is reported as 113 ± 6.08% (TRPM8; antagonist; HEK293; 5 µM; relative to: control).
For `Cc1cccc(C)c1NC(=O)Nc1ccc(Cl)c(C(F)(F)F)c1`, the remaining activity was 117% (spsB; peptidase activity, activator, FRET peptide cleavage; Staphylococcus aureus, membranes; 10 µM; relative to: DMSO).
The remaining activity of `O=C1NC(=O)/C(=C/c2ccc(-c3ccc(F)cc3O)o2)S1` is reported as 53% (MAP4K2 (Homo sapiens, UniProt Q12851); enzyme activity; 10 µM).
`COc1cccc(-c2cc(=O)c3ccccc3o2)c1N` has a remaining activity of 95.1 ± 2.53% (TRPM8; antagonist; HEK293; 5 µM; relative to: control).
`CNC(=O)c1ccc(NC(=O)Nc2ccc(Cl)c(C(F)(F)F)c2)cc1` has a remaining activity of 111% (spsB; peptidase activity, activator, FRET peptide cleavage; Staphylococcus aureus, membranes; 10 µM; relative to: DMSO).
For `O=C(O)c1ccc(Nc2ncc3c(n2)-c2ccc(Cl)cc2C(c2c(F)cccc2F)=NC3)cc1`, the remaining activity was 123% (PKCε(h); kinase activity; 1 µM).
The remaining activity of `Cc1cc(NC(=O)c2cccc(NC(=O)/C=C/CN(C)C)c2)ccc1Nc1nccc(-c2cccnc2)n1` is reported as 0.994 (MAPK8 (Homo sapiens, UniProt P45983); enzyme activity, inhibitor; 0.0007527 µM, 0 h, unit not given, together with: GSH 10 mM pre-incubation; relative to: vehicle).
`COc1cc(Nc2ncc3c(n2)-c2ccc(Cl)cc2C(c2c(F)cccc2OC)=NC3)ccc1C(=O)O` gave a remaining activity of 100% (GSK3 alpha; inhibitor, biochemical kinase; 1 µM).
For `O=C(Nc1ccc(N2CCOCC2)cc1)Nc1ccc(Cl)c(C(F)(F)F)c1`, the remaining activity was 128% (spsB; peptidase activity, activator, FRET peptide cleavage; Staphylococcus aureus, membranes; 50 µM; relative to: DMSO).
With `C=CC(=O)N1CCC([C@@H]2CCNc3c(C(N)=O)c(-c4ccc(Oc5ccccc5)cc4)nn32)CC1` the remaining activity was 101.4 ± 0.2% (TNIK (Homo sapiens, UniProt Q9UKE5); kinase activity, inhibitor, HotSpot radiometric; 100 nM, together with: ATP 10 µM).
`Oc1ccc(-c2nc(-c3ccc(F)cc3)c(-c3ccncc3)[nH]2)cc1` has a remaining activity of 112 ± 8.39% (TRPM8; antagonist; HEK293; 5 µM; relative to: control).
For `COc1cc(O)c(CC=C(C)C)c(O)c1C(=O)/C=C/c1ccc(O)cc1`, the remaining activity was 11.3% (Thyroxine 5-deiodinase (DIO3, Homo sapiens, UniProt P55073); 200 µM, 0.1667 h).
With `COc1ccc(CNc2nc(N(CCO)CCO)nc3c2ncn3C(C)C)cc1` the remaining activity was 84.8 ± 2.64% (TRPM8; antagonist; HEK293; 5 µM; relative to: control).
For `C=CC(=O)N1CCC[C@@H](n2nc(-c3ccc(Oc4ccccc4)cc3)c3c(N)ncnc32)C1`, the remaining activity was 35.9 ± 0.5% (FLT3 (Homo sapiens, UniProt P36888); kinase activity, inhibitor, HotSpot radiometric; 100 nM, together with: ATP 10 µM).
`C=CC(=O)N1CCC[C@@H](n2nc(-c3ccc(Oc4ccccc4)cc3)c3c(N)ncnc32)C1` has a remaining activity of 32.5% (LCK; 10 µM).
The remaining activity of `O=S(=O)(NCCNC/C=C/c1ccc(Br)cc1)c1cccc2cnccc12` is reported as 93.4 ± 9.16% (TRPM8; antagonist; HEK293; 5 µM; relative to: control).
For `O=C(Nc1ccc2c(c1)OCCO2)Nc1ccc(Cl)c(C(F)(F)F)c1`, the remaining activity was 119% (spsB; peptidase activity, activator, FRET peptide cleavage; Staphylococcus aureus, membranes; 100 µM; relative to: DMSO).
For `COc1cc(F)ccc1-c1ncnc(Nc2cccc(C[S@](C)(=N)=O)c2)n1`, the remaining activity was 100% (PKN2 (Homo sapiens, UniProt Q16513); kinase activity; 10 µM, together with: 10 µM ATP).
The remaining activity of `CC#CC(=O)N1CCC[C@H]1c1nc(-c2ccc(C(=O)Nc3ccccn3)cc2)c2c(N)nccn12` is reported as 97.25 ± 0.8% (LCK; kinase activity, inhibitor, HotSpot radiometric; 100 nM, together with: ATP 10 µM).
`C=CC(=O)N1CCCN(C(=O)c2cc(Sc3cnc(NC(=O)C4CC4)s3)c(C)cc2OC)C[C@H]1C` gave a remaining activity of 89% (LCK; kinase activity, inhibitor; concentration not given; relative to: control).
`O=C(Nc1ccc(Cc2ccccc2)cc1)Nc1ccc(Cl)c(C(F)(F)F)c1` has a remaining activity of 206% (spsB; peptidase activity, activator, FRET peptide cleavage; Staphylococcus aureus, membranes; 50 µM; relative to: DMSO).
